Experimental data collected from several papers.
Compare with care: the assays were run in different laboratories. ± gives the spread as reported.
Sequence of UniProt O94956 (whole entry, looked up): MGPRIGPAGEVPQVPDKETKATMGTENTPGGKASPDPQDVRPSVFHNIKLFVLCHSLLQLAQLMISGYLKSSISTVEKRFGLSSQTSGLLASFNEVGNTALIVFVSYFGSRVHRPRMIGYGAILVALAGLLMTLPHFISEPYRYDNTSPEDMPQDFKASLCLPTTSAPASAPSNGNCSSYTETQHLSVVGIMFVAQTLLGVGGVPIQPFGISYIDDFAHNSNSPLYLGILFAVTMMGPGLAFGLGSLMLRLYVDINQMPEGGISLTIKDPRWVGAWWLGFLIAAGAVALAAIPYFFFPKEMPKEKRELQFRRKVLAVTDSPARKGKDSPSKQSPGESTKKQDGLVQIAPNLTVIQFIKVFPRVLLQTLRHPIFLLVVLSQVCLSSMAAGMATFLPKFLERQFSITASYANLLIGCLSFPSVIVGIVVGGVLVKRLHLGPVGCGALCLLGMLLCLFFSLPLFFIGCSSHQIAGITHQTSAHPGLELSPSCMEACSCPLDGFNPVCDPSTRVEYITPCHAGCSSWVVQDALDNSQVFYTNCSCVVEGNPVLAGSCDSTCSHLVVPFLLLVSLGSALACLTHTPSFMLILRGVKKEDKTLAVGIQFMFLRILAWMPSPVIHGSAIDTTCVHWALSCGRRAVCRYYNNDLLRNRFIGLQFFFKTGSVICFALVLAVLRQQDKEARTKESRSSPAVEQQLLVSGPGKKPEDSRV

| SMILES | target or system | test | system | conditions | endpoint | result |
| --- | --- | --- | --- | --- | --- | --- |
| CN[C@](C)(C[18F])C(=O)O | DU-145 tumour model |  | host not given, kidney | 2 h, tumour-bearing | tracer uptake | 4.2 %ID/g |
| COC(=O)CCCC1C2CCCN3CCCC(CN1C(=O)c1ccc(Cl)cc1)C23 (stereo not shown) | HEK293T |  |  |  | CC50 | > 200 µM |
| CCCC[C@H](NC(=O)CCCCCCCNC(=O)c1ccc(NN)nc1)C(=O)N[C@H]1CC(=O)NCCCC[C@@H](C(N)=O)NC(=O)[C@H](Cc2c[nH]c3ccccc23)NC(=O)[C@H](CCCNC(=N)N)NC(=O)[C@@H](Cc2ccccc2)NC(=O)[C@H](Cc2c[nH]cn2)NC1=O [technetium-99m labelled] |  |  | C57 mice, B16/F1 melanoma, urine | concentration not given, 2 h, with: 12 mg L-lysine | biodistribution | 88.1 ± 1.9 %ID |
| C[C@@](O)(C(F)F)[C@H](NC(=O)c1ccc(C#CC#CC2CC2)cc1)C(=O)NO |  |  | CD-1 mouse | oral, 40 mg/kg, not fasted | CL/F | 138 ± 80 mL/min/kg |
| N=C(N)NCCC[C@@H]1NC(=O)[C@H](CCCCNC(=O)CC[C@H](NC(=O)CCOCCOCCOCCOCCNC(=O)CC[C@H](NC(=O)CN2CCN(CC(=O)O)CCN(CC(=O)O)CCN(CC(=O)O)CC2)C(=O)NCCOCCOCCOCCOCCC(=O)N[C@@H](CCC(=O)NCCCC[C@@H]2NC(=O)[C@@H](Cc3ccccc3)NC(=O)[C@H](CC(=O)O)NC(=O)CNC(=O)[C@H](CCCNC(=N)N)NC2=O)C(=O)NCCCC[C@@H]2NC(=O)[C@@H](Cc3ccccc3)NC(=O)[C@H](CC(=O)O)NC(=O)CNC(=O)[C@H](CCCNC(=N)N)NC2=O)C(=O)NCCCC[C@@H]2NC(=O)[C@@H](Cc3ccccc3)NC(=O)[C@H](CC(=O)O)NC(=O)CNC(=O)[C@H](CCCNC(=N)N)NC2=O)NC(=O)[C@@H](Cc2ccccc2)NC(=O)[C@H](CC(=O)O)NC(=O)CNC1=O [indium-111 labelled] |  |  | female athymic nude mice, eyes | intravenous, 3 µCi, 0.5 h, U-87 MG glioma xenograft | tissue uptake | 0.87 ± 0.24 %ID/g |
| COc1cc(C(=O)NCCOCCOCCOCCNC(=O)c2ccc([18F])nc2)ccc1NC(=O)C1NC(CC(C)(C)C)C(C#N)(c2ccc(Cl)cc2F)C1c1cccc(Cl)c1F (stereo not shown) | SJSA-1 tumour model |  | host not given, blood | 2 h, tumour-bearing | tracer uptake | 0.57 %ID/g |
| O=C(O)CCC(NP(=O)(O)OCCC[C@@H](NC(=O)CCC(NC(=O)CCCCCNC(=O)c1ccc([18F])cc1)C(=O)O)C(=O)O)C(=O)O (stereo partly shown) | CWR22Rv1 tumour model |  | host not given, spleen | intravenous, 2 h, tumour-bearing | tracer uptake | 0.84 %ID/g |
| CC[C@H](C)[C@H](NC(=O)[C@H](CC(=O)O)NC(=O)[C@@H](NC(=O)[C@@H]1CCCN1C(=O)[C@@H](N)CCCNC(=N)N)[C@@H](C)O)C(=O)N[C@@H](CCCCN)C(=O)N[C@H]1CSSC[C@@H]2NC(=O)[C@H](CCCNC(=N)N)NC(=O)CNC(=O)[C@H](CC(N)=O)NC(=O)[C@H]([C@@H](C)O)NC(=O)[C@H](CCCCN)NC(=O)CNC(=O)[C@H](Cc3ccccc3)NC(=O)[C@H](CCCNC(=N)N)NC(=O)[C@H](CO)NC(=O)[C@H](CCCCN)NC(=O)[C@@H]3CSSC[C@@H](C(=O)N[C@@H](Cc4ccccc4)C(=O)O)NC(=O)[C@H](CC(=O)O)NC(=O)[C@H](CSSC[C@H](NC(=O)[C@H](CCC(N)=O)NC(=O)[C@H](Cc4ccc(O)cc4)NC(=O)[C@H](CO)NC(=O)[C@H](CCC(=O)O)NC(=O)[C@H](CO)NC1=O)C(=O)N[C@@H](Cc1ccccc1)C(=O)N1CCC[C@H]1C(=O)N[C@@H](C(C)C)C(=O)N3)NC(=O)[C@H](Cc1ccccc1)NC(=O)CNC(=O)[C@H](CC(N)=O)NC(=O)[C@H](C(C)C)NC2=O | KCNH2 (Homo sapiens, UniProt Q12809, S631C) | potassium current, two-electrode voltage clamp | Xenopus laevis oocytes |  | Hill coefficient | 0.8 ± 0.1 |
| CC[C@H](C)C(=O)N1CCC(NC(=O)Nc2ccc(OC(F)(F)F)c(F)c2)CC1 |  |  | healthy volunteers | oral, 16 mg single dose | subjects with feeling hot TEAE | 0% |
| N=C(N)NCCC[C@@H]1NC(=O)[C@H](CCCCNC(=O)CCOCCOCCOCCOCCNC(=O)CN2CCN(CC(=O)O)CCN(CC(=O)O)CCN(CC(=O)O)CC2)NC(=O)[C@@H](Cc2ccccc2)NC(=O)[C@H](CC(=O)O)NC(=O)CNC1=O [indium-111 labelled] |  |  | female athymic nude mice, eyes | intravenous, 3 µCi, 0.5 h, U-87 MG glioma xenograft | tissue uptake | 0.85 ± 0.15 %ID/g |
| CSCC[C@H](NC(=O)[C@H](CC(C)C)NC(=O)[C@H](Cc1c[nH]cn1)NC(=O)CNC(=O)[C@@H](NC(=O)[C@H](C)NC(=O)[C@H](Cc1c[nH]c2ccccc12)NC(=O)[C@H](CCC(N)=O)NC(=O)CCCCCNC(=O)CNC(=O)CNC(=O)CNC(=O)CSC(C)=O)C(C)C)C(N)=O [technetium-99m labelled] |  |  | healthy Swiss mouse, stomach, contents removed | intravenous, 18.5 MBq, 240 min | tissue uptake | 0.67 ± 0.05 %ID/g |
| N[C@]1(c2ccccc2Cl)CCC[C@H](O)C1=O |  |  | Wistar rat | intravenous, 20 mg/kg, 20 min | brain to plasma ratio | 3.5 |
| CC(CCC(=O)NCC(=O)O)C1CCC2C3C(O)CC4CC(OC5OC(C(=O)O)C(O)C(O)C5O)CCC4(C)C3CCC12C (stereo not shown) | SLCO2B1 (Homo sapiens, UniProt O94956) | transporter uptake, inhibitor |  |  | IC50 | > 100 µM |
| COc1ccc(-n2cc(C(=O)N3C[C@]4(OC(=O)c5ccccc5NC(C)=O)CC[C@H](OC)[C@@]56[C@@H]4C[C@@H]([C@@H]35)[C@@]3(O)C[C@H](OC)[C@H]4C[C@@H]6[C@]3(O)[C@H]4OC)nn2)cc1 |  |  | Sprague-Dawley rat, plasma | intravenous, 2 mg/kg | AUC(0-inf) | 42.9 ng·h/mL |
| COc1ccc(CNc2nc(N3CCC[C@H]3CO)ncc2C(=O)NNC(=O)c2cnc(N3CCC[C@H]3CO)nc2NCc2ccc(OC)c(Cl)c2)cc1Cl | Salmonella typhimurium |  | TA97a | 125 µg/plate, 48 h | revertant count | 98 ± 5 |
| O=C(O)CCC(NP(=O)(O)OCCC[C@@H](NC(=O)CCC(NC(=O)c1ccc([18F])cc1)C(=O)O)C(=O)O)C(=O)O (stereo partly shown) | CWR22Rv1 tumour model |  | host not given, lung | intravenous, 1 h, tumour-bearing | tracer uptake | 0.65 %ID/g |
| CN(C)CC1CCCCC1(O)c1cccc(O)c1 (stereo not shown) |  |  | Caco-2 | 10 µM, 3 h, pH 7.4 | Papp B→A | 14.2 ×10⁻⁶ cm/s |
| O=C(O)CCC(NP(=O)(O)OCCC[C@@H](NC(=O)CCC(NC(=O)CCCCCNC(=O)CCCCCNC(=O)c1ccc([18F])cc1)C(=O)O)C(=O)O)C(=O)O (stereo partly shown) | CWR22Rv1 tumour model |  | host not given, lung | intravenous, 1 h, tumour-bearing | tracer uptake | 0.25 %ID/g |
| CCC(=O)N(C)c1ccc(Cl)c(Cl)c1 | Salmonella typhimurium | Ames test | TA100 | 5.00 mg/plate, without S9 | revertant colonies | 0 revertants/plate |
